Experimental data of several laboratories.
Lines come from different studies, so protocols differ. Numbers after ± are the reported error.

Molecule	tested on	test	test system	setting	scale	quantity	result
Polymyxin B	Escherichia coli		K1 ATCC 700973	16 h, 37 °C, Mueller-Hinton broth		MIC	1 µM
ILPWTWPWWPWRR	Escherichia coli		peptide, K-12 MG1655, Mueller-Hinton broth	concentration not given, 37 °C, unit not given	relative to: no peptide	growth rate	0.517
colistin	Escherichia coli		ATCC BAA-2452, NDM-1			MIC	≤ 0.12 µg/mL
Polymyxin B	Escherichia coli	broth microdilution	ATCC 25922	20 h		MIC	2 µg/mL
ILPWIWPWWPWRR	Escherichia coli		peptide, K-12 MG1655, Mueller-Hinton broth	concentration not given, 37 °C, unit not given	relative to: no peptide	growth rate	0.645
polymyxin B	Escherichia coli		W3110, colistin-sensitive, Mueller-Hinton broth			MIC	0.5 µg/mL
RRNQKRKRGYNSV	Escherichia coli	bacterial survival, plate count	peptide	20 µM, 4 h, room temperature	relative to: untreated control	bacterial killing	42.6%
ILPWNWPWWPWRR	Escherichia coli		peptide, K-12 MG1655, Mueller-Hinton broth	concentration not given, 37 °C, unit not given	relative to: no peptide	growth rate	0.0833
KKRRRGLSRFRMGRGY	Escherichia coli	bacterial survival, plate count	peptide	20 µM, 4 h, room temperature	relative to: untreated control	bacterial killing	90.3%
gramicidin D	Escherichia coli	checkerboard	tetracycline-resistant (pBR322)	20 µM, added: tetracycline		tetracycline MIC	900 ± 100 µM
vancomycin	Escherichia coli	bacterial growth				IC50	> 40 µM
insulin human		refers to: NRGN mRNA	uninfected mouse, brain	i.p., dose not given	relative to: PBS	fold change	0.849
ILPWVWPWWPWRR	Escherichia coli		peptide, K-12 MG1655, Mueller-Hinton broth	concentration not given, 37 °C, unit not given	relative to: no peptide	growth rate	0.157
RRHQRSRRPYHRMPNP	Escherichia coli	bacterial survival, plate count	peptide	20 µM, 4 h, room temperature	relative to: untreated control	bacterial killing	21.1%

Repeated from above:
Molecule	tested on	test	test system	setting	scale	quantity	result
ILPWTWPWWPWRR	Escherichia coli		peptide, K-12 MG1655, Mueller-Hinton broth	concentration not given, 37 °C, unit not given	relative to: no peptide	growth rate	0.517
colistin	Escherichia coli		ATCC BAA-2452, NDM-1			MIC	≤ 0.12 µg/mL
